Measured values from different studies.
Lines come from different studies, so protocols differ. ± marks the error that the study gave.
Nuclear receptor subfamily 2 group C member 2 ligand-binding domain: Nuclear receptor subfamily 2 group C member 2, ligand-binding domain (Homo sapiens, UniProt P49116)
Chain of UniProt P49116 (whole entry, looked up): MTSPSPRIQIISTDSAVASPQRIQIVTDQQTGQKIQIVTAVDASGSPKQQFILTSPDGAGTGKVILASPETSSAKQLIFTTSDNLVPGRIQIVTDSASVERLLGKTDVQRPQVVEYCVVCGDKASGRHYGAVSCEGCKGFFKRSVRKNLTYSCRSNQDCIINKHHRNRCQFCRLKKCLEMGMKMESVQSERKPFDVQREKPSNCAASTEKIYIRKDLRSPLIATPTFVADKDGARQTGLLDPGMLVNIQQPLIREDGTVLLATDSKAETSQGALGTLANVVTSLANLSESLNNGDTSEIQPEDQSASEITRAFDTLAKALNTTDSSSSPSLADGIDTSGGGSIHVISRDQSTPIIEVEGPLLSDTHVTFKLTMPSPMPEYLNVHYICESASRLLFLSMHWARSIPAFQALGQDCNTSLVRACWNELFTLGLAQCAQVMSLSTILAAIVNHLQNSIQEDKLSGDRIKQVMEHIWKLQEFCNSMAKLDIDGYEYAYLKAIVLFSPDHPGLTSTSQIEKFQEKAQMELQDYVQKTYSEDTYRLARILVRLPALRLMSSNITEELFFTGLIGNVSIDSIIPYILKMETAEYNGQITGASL
YWHAG/RELA phospho-Ser45 p65 peptide: YWHAG/RELA, phospho-Ser45 p65 peptide (Homo sapiens, UniProt P61981+Q04206)
Chain of UniProt Q04206 (whole entry, looked up): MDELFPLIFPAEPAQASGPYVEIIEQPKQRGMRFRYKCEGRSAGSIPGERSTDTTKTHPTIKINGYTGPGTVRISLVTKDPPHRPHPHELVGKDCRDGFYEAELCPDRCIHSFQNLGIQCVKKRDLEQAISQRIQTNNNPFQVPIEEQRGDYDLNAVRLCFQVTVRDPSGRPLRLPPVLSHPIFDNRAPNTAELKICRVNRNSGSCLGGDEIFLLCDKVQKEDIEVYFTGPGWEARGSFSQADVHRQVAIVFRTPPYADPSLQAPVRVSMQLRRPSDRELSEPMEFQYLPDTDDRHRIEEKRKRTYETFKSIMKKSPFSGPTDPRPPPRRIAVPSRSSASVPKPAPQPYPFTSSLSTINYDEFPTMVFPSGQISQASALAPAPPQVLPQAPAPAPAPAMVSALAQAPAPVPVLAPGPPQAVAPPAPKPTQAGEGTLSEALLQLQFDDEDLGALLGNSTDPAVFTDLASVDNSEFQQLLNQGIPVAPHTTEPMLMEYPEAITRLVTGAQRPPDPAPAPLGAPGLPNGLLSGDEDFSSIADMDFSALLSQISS
Chain of UniProt P61981 (whole entry, looked up): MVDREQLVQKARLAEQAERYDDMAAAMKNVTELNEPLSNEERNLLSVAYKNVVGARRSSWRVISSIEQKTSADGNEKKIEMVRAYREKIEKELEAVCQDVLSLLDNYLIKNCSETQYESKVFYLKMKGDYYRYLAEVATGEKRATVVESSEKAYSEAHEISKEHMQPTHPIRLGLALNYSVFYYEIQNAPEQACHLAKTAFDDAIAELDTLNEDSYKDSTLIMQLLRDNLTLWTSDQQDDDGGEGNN
Chain of UniProt P04746 (whole entry, looked up): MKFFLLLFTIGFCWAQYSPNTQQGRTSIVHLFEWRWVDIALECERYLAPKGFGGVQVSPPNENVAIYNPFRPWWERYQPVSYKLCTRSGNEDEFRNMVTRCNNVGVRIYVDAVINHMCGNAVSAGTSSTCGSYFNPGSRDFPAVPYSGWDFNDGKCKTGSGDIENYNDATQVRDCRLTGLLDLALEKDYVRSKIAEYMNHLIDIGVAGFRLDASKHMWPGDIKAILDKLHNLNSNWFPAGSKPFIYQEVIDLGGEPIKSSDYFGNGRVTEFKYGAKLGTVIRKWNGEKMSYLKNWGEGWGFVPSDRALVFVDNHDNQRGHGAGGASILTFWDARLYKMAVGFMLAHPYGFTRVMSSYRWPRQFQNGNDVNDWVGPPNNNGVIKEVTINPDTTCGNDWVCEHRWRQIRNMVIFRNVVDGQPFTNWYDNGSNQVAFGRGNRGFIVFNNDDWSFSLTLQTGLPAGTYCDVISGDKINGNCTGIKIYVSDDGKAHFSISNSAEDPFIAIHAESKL
Chain of UniProt P51812 (whole entry, looked up): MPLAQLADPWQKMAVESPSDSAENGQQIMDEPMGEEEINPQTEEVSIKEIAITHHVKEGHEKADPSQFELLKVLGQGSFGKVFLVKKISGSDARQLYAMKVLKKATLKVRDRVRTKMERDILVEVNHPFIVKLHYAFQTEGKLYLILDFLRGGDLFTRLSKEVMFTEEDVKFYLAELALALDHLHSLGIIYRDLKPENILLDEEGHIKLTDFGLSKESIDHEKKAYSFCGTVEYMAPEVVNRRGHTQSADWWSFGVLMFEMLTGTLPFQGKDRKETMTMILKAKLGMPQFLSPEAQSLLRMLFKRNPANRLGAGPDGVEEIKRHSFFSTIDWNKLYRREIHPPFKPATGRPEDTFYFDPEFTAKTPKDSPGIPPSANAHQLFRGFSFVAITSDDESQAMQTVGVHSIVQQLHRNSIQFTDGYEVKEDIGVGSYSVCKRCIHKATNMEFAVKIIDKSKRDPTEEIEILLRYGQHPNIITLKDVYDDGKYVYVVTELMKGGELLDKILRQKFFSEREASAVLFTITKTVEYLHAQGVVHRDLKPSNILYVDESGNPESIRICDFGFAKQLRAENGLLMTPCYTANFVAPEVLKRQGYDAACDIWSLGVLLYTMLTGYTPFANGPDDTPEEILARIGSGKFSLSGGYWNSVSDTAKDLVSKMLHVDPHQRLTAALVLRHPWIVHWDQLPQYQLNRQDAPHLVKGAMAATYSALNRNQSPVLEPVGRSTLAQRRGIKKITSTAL
Chain of UniProt Q9D358 (whole entry, looked up): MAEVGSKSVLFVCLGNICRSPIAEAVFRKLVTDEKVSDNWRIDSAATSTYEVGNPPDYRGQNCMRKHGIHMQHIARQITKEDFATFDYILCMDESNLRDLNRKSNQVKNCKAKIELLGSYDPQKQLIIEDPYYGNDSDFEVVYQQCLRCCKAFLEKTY
Chain of UniProt Q29495 (whole entry, looked up): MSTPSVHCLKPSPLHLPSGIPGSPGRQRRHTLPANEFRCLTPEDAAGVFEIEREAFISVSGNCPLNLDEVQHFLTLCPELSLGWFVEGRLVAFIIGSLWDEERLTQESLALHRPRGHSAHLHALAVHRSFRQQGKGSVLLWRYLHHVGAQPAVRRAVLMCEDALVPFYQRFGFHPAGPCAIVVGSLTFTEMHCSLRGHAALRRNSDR
Chain of UniProt P00748 (whole entry, looked up): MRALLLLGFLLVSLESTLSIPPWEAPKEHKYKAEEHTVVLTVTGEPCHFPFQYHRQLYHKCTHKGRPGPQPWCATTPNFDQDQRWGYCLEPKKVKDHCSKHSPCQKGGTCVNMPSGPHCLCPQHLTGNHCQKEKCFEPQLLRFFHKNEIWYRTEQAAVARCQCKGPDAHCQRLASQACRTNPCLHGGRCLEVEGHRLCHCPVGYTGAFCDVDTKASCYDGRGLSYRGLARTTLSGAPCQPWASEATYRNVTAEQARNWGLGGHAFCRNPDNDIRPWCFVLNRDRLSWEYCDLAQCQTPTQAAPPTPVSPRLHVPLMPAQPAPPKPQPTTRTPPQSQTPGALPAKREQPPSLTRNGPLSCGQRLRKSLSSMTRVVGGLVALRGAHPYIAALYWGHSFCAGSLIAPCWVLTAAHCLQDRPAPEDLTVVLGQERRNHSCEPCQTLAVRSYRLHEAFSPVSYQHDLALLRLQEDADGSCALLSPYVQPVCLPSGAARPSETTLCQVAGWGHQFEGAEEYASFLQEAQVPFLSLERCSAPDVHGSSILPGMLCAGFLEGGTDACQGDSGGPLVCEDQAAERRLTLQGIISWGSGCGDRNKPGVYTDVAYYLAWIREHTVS
Chain of UniProt P49720 (whole entry, looked up): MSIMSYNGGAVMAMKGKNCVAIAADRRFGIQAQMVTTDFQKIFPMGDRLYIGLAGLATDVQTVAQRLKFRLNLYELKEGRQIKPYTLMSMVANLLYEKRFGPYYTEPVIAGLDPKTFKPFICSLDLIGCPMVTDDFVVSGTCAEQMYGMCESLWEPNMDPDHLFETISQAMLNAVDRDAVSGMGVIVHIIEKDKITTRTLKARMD
Chain of UniProt P28062 (whole entry, looked up): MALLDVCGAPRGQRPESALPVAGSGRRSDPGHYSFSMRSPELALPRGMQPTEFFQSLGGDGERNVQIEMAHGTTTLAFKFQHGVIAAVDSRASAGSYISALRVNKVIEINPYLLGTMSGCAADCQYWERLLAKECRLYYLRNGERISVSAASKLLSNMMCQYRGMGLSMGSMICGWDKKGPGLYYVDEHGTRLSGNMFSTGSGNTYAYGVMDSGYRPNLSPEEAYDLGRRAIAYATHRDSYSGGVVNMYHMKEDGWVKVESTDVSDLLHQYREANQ
Chain of UniProt P53341 (whole entry, looked up): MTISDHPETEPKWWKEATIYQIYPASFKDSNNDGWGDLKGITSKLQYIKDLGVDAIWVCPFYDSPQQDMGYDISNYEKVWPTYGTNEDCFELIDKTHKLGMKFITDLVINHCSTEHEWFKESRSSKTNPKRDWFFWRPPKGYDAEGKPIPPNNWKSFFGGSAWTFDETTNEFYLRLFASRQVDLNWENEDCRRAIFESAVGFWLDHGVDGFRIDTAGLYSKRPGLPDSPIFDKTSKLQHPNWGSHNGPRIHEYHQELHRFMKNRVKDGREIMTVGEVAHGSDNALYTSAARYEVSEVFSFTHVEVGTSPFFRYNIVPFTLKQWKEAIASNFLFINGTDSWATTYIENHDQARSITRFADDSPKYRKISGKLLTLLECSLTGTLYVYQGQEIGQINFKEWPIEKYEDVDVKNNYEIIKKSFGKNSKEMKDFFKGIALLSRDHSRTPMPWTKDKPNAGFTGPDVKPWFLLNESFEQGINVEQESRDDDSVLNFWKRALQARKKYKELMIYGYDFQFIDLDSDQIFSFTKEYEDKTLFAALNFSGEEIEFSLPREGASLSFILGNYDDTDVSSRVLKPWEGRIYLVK
Chain of UniProt P20618 (whole entry, looked up): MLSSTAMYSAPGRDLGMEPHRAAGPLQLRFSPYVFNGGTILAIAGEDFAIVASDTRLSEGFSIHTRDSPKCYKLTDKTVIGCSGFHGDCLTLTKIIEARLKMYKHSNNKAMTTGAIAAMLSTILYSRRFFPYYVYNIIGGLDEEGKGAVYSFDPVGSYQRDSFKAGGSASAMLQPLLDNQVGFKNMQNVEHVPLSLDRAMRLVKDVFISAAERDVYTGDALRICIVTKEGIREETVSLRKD

For `Cc1ccc(NC(=S)N/N=C/C=C/c2ccc(F)cc2)c(C)c1`, the IC50 was 7 ± 0.6 µM (Urease subunit alpha (Sporosarcina pasteurii, UniProt P41020); enzyme activity, indophenol method).
For `CC[C@@H]1[C@H](F)C(=O)N[C@@H]1COc1nccc2cc(C(N)=O)c(OC)cc12`, the IC50 was greater than 5 µM (Ribosomal protein S6 kinase alpha-3 (RPS6KA3, Homo sapiens, UniProt P51812); ATP-site binding, ActivX kinase profiling; THP-1 cell lysate; RSK2 domain 2 Lys2 probe peptide).
With `CC[C@@]1(O)C(=O)OCc2c1cc1n(c2=O)Cc2cc3c(CN(C)C)c(O)ccc3nc2-1` the Kd was 0.0168 µM (Nuclear receptor subfamily 2 group C member 2 ligand-binding domain; SPR imaging).
`c1ccc(-c2cc(NCCN3CCCCC3)c3ccccc3n2)cc1` has an IC50 of 3.49 µM (Low molecular weight phosphotyrosine protein phosphatase, isoform A (Mus musculus, UniProt Q9D358); enzyme activity, inhibitor; together with: OMFP substrate).
With `COc1cc(/C=N/n2c(C)nc3ccc(Br)cc3c2=O)ccc1O` the IC50 was 25.8 ± 1.41 µM (Alpha-glucosidase MAL12 (MAL12, Saccharomyces cerevisiae S288c, UniProt P53341); enzyme activity, inhibitor; Saccharomyces cerevisiae; together with: 4-nitrophenyl glucopyranoside).
For `COc1cccc(CNC(=O)c2ccc(C=O)cc2)c1`, the EC50 was greater than 1000 µM (YWHAG/RELA phospho-Ser45 p65 peptide; ternary complex formation, stabilizer, fluorescence anisotropy).
For `Cc1nc2ccc(Cl)cc2c(=O)n1NC(=O)CCl`, the IC50 was 440 ± 7.07 µM (Pancreatic alpha-amylase (Homo sapiens, UniProt P04746); enzyme activity, inhibitor).
`O=Cc1ccc(C(=O)N2CCC(CCO)CC2)cc1` has an EC50 of greater than 1000 µM (YWHAG/RELA phospho-Ser45 p65 peptide; ternary complex formation, stabilizer, fluorescence anisotropy).
With `COCc1nn(Cc2ccc(Cn3ccccc3=O)cc2)cc1C(=O)NCc1c(F)ccc(OC)c1F` the IC50 was greater than 40 µM (Coagulation factor XII (F12, Homo sapiens, UniProt P00748)).
With `COc1ccc(-c2ccc3c(N4CCOC[C@@H]4C)nc(N4CCOC[C@@H]4C)nc3n2)cc1COC(=O)CCOCCOCCOCCONC(=O)c1ccc(F)c(F)c1Nc1ccc(I)cc1F` the IC50 was 0.0832 µM (Dual specificity mitogen-activated protein kinase kinase 1 (MAP2K1, Homo sapiens, UniProt Q02750); kinase activity, inhibitor, Z'-LYTE or Adapta).
The IC50 of `COCC(=O)N1CCC[C@H](C(=O)NCc2nc(-c3ccc(C#N)cc3)cs2)C1` is reported as greater than 30 µM (PSMB1/PSMB8/PSMB3 (Homo sapiens, UniProt P20618+P28062+P49720)).
For `CC(C)Cn1c(=O)n(C)c(=O)c2nc(/C=C\CCCO)c(Cc3cccc4ccccc34)nc21`, the IC50 was 0.116 µM (Monocarboxylate transporter 1 (Slc16a1, Mus musculus, UniProt P53986); lactate transport; MCF7 expressing Slc16a1; 10 min, together with: [14C]lactate).
The IC50 of `COc1c(Cl)cccc1Nc1c(-c2ccncc2OC[C@@H]2COCCO2)[nH]c2c1C(=O)NCC2` is reported as 0.13 µM (Mitogen-activated protein kinase 14 (MAPK14, Homo sapiens, UniProt Q16539); kinase activity, inhibitor, TR-FRET; median value, together with: ATP 2 mM).
`COC1=C(OC)C(=O)C(CCCCCCCCCCO)=C(C)C1=O` gave a Kd of 0.471 µM (Nuclear receptor subfamily 2 group C member 2 ligand-binding domain; SPR imaging).
`O=C1NC(=O)/C(=C2/C(=O)N(Cc3ccc(F)cc3)c3ccccc32)N1` gave an IC50 of greater than 60 µM (Serotonin N-acetyltransferase (Ovis aries, UniProt Q29495); inhibitor, stopped-flow UV; together with: serotonin 100 µM, acetyl-CoA 100 µM).
